Measurements gathered from unrelated publications.
Numbers after ± are the reported error.
TDO2: Tryptophan 2,3-dioxygenase (TDO2, Homo sapiens, UniProt P48775)
FGFR1: Fibroblast growth factor receptor 1 (FGFR1, Homo sapiens, UniProt P11362)
Grm5: Metabotropic glutamate receptor 5 (Grm5, Rattus norvegicus, UniProt P31424)
DDR1: Epithelial discoidin domain-containing receptor 1 (DDR1, Homo sapiens, UniProt Q08345)

Structure (SMILES)	target	test	system	setting	IC50
N=C(N)SCc1ccc(Cl)cc1	TDO2	–	–	added: L-tryptophan 2 mM	> 30 µM
COCCOCCN1CCc2c(Cc3ccc(Cl)cc3)[nH]c3c(OC)ccc(c23)C1=O	cGMP-specific 3',5'-cyclic phosphodiesterase (PDE5A, Homo sapiens, UniProt O76074)	enzyme activity, inhibitor	–	–	0.039 µM
COc1cc(/C=C/c2cc(/C=C/c3ccc(O)c(OC)c3)nc(N)n2)ccc1O	Sterol carrier protein 2 (Helicoverpa armigera, UniProt K7NSY9)	displacement of 1,8-ANS, fluorescence	–	pH 7.0, 25 °C, added: 1,8-ANS 15 µM	19.9 µM
COc1cc2nccc(Oc3ccc(NC(=S)Nc4ccc(F)cc4)c(Cl)c3)c2cc1C(N)=O	FGFR1	–	–	–	0.907 µM
Cc1ccc(CNC(=O)[C@H](CCc2ccccc2)NC(=O)[C@H](CC(=O)NCC(C)(C)C)NC(=O)CCc2cccc(F)c2)cc1	Proteasome subunit beta type-10 / Proteasome subunit beta type-3 (Homo sapiens, UniProt P40306+P49720)	inhibitor	–	–	> 100 µM
Cc1ccccc1-c1nc(Nc2nc3ccccc3o2)ncc1C#N	Grm5	calcium signal, antagonist	–	–	0.403 µM
CC[C@H](C)[C@H](NC(=O)[C@H](CCCNC(=N)N)NC(=O)[C@H](CCCNC(=N)N)NC(=O)[C@H](CC(C)C)NC(=O)[C@H](C)NC(=O)[C@@H]1CCC(=O)N[C@@H](CNC(=O)CCl)C(=O)N[C@@H]([C@@H](C)CC)C(=O)N[C@@H](C)C(=O)N1)C(=O)NCC(=O)N[C@@H](CC(=O)O)C(=O)N[C@@H](C)C(=O)N[C@@H](Cc1ccccc1)C(=O)N[C@@H](CC(N)=O)C(=O)N[C@@H](C)C(=O)N[C@@H](C)C(=O)N[C@@H](Cc1ccc(O)cc1)C(N)=O	Bcl-2-like protein 1 (BCL2L1, Homo sapiens, UniProt Q07817)	BID BH3 peptide binding, inhibitor, DELFIA displacement	–	2 h, 1% DMSO	1.75 ± 0.5 µM
COc1ccc(-c2cn(C)c3ncnc(N)c23)cc1	FGFR1	Caliper mobility shift	–	30 min preincubation, added: 100 µM ATP	3.3 µM
CN1Cc2c(Cl)cc(Cl)cc2C(c2cccc(S(=O)(=O)NCCNC(=O)C(O)C(O)C(=O)NCCNS(=O)(=O)c3cccc(C4CN(C)Cc5c(Cl)cc(Cl)cc54)c3)c2)C1 (stereo not shown)	Sodium/hydrogen exchanger 3 (Rattus norvegicus, UniProt P26433)	intracellular pH recovery, inhibitor, pH-sensitive dye	opossum kidney cells, transfected	–	0.501 µM
CNC(=O)CN1CN(c2ccccc2)C2(CCN(C(=O)c3cnc4[nH]ccc4c3)CC2)C1=O	DDR1	ligand displacement	–	–	> 167 µM
NC(=O)NC(c1ccccc1)(c1ccccc1)c1ccccc1	Gap junction alpha-8 protein (Gja8, Mus musculus, UniProt P28236)	gap junction channel current, inhibitor, dual whole-cell voltage clamp	N2a transfected with Cx50	–	no effect
O=C(O)c1ccccc1/N=C/c1c(O)ccc2ccccc12	Krev interaction trapped protein 1, FERM domain (KRIT1, Homo sapiens, UniProt O00522)	HEG1-KRIT1 FERM interaction, inhibitor, flow cytometry bead	–	–	3.5 µM
Cc1cnc(-c2cc(=O)n3nc(N[C@@H](CC4CCC(F)(F)C4)C(=O)Nc4ccc(C(F)F)cc4)sc3n2)o1 (stereo partly shown)	Protein phosphatase 1D (PPM1D, Homo sapiens, UniProt O15297)	enzyme activity, inhibitor, mass spectrometry	–	–	0.0051 µM
CCC1(CC)C[C@@H](NC(=O)Nc2cccc3c(C)nccc23)c2cc(F)ccc2O1	Transient receptor potential cation channel subfamily V member 1 (Trpv1, Rattus norvegicus, UniProt O35433)	calcium signal, fluorescence	–	pH 5	> 37.5 µM
CN(C)c1ccc(C(=O)NCCCCCCC(=O)NO)cc1	HDAC (Lucilia cuprina egg nuclear extract)	enzyme activity, inhibitor, fluorometric	–	–	0.58 µM
C=CC[C@@H]1/C=C(\C)C[C@H](C)C[C@H](OC)[C@H]2O[C@@](O)(C(=O)C(=O)N3CCCC[C@H]3C(=O)O[C@H](/C(C)=C/[C@@H]3CC[C@@H](O)[C@H](OC)C3)[C@H](C)[C@@H](O)CC1=O)[C@H](C)C[C@@H]2OC	Peptidyl-prolyl cis-trans isomerase A (PPIA, Homo sapiens, UniProt P62937)	ligand displacement, FP	–	–	> 10 µM
C=CC(=O)N1CCc2ccc(-n3c(=O)ccc4cnc5ccc(-c6cnn(C)c6)cc5c43)cc21	Tyrosine-protein kinase SYK (SYK, Homo sapiens, UniProt P43405)	enzyme activity, inhibitor	–	–	> 10 µM
O=C(O)c1ccccc1NCc1ccccc1Cl	Transient receptor potential cation channel subfamily M member 4 (TRPM4, Homo sapiens, UniProt Q8TD43)	ion flux, inhibitor, fluorescence	–	–	8.3 µM
O=C(CCCCCCC(=O)NO)NO	HDAC (Lucilia cuprina egg nuclear extract)	enzyme activity, inhibitor, fluorometric	–	–	9.9 µM
CC(C)S(=O)(=O)c1cccc(O)c(=O)c1O	Protein P, RNase H domain (P, Hepatitis B virus genotype D subtype ayw, UniProt P03156)	RNase H activity, inhibitor	Hepatitis B virus	–	103 ± 13 µM
Cc1ccc(CNC(=O)[C@H](CC(C)C)NC(=O)[C@H](CCc2ccccc2)NC(=O)c2cnc(C)cn2)cc1	20S proteasome (Plasmodium falciparum, UniProt A0A5K1K7U1+Q8IJT1)	β5 activity, inhibitor	–	added: Suc-LLVY-AMC, PA28α-activated	0.105 µM
O=C(CSc1nc2sc3c(c2c(=O)n1-c1ccccc1)CCCCC3)NN=Cc1ccc(F)cc1	Dihydrofolate reductase (DHFR, Homo sapiens, UniProt P00374)	enzyme activity, inhibitor, ELISA	–	–	0.2 µM
c1ccc(-c2cc3ccccc3o/c2=N\c2ccc3c(c2)OCO3)cc1	Prostaglandin G/H synthase 2 (PTGS2, Homo sapiens, UniProt P35354)	enzyme activity, inhibitor	–	–	0.014 µM
COc1cc(N2CCN(C)CC2)ccc1Nc1ncc2c(n1)N(C)c1ccc(C)cc1C(=O)N2CC(F)(F)F	Leucine-rich repeat serine/threonine-protein kinase 2 (LRRK2, Homo sapiens, UniProt Q5S007)	enzyme activity, inhibitor	–	–	> 10 µM
COC(=O)[C@H]1C[C@H](OCCCl)[C@@H](O[C@H]2O[C@H](CO)[C@@H](O)[C@H](O)[C@@H]2n2cc(-c3ccccn3)nn2)C[C@@H]1C(=O)OC	CD209 antigen (CD209, Homo sapiens, UniProt Q9NNX6)	cell-free assay, SPR	–	–	180 µM

Structure (SMILES)	target	test	system	setting	IC50
CC(C)(O)C(=O)C(=O)Nc1cccc(C(=O)N2CCC(c3cccc(CN)c3)CC2)c1	Tryptase beta-1 (Homo sapiens, UniProt Q15661)	enzyme activity, inhibitor	–	tryptase 100 pM, added: AMC substrate	0.0207 µM
COc1cc2nccc(Oc3ccc(NC(=S)NCC4CC4)c(Cl)c3)c2cc1C(N)=O	FGFR1	–	–	–	0.406 µM
C[C@@H](O)[C@H](NC(=O)CC(=O)OC[C@H]1O[C@@H](n2cnc3c(N)ncnc32)[C@H](O)[C@@H]1O)C(=O)O	tsaD/tsaC, with TsaB and TsaE (Escherichia coli, UniProt P05852+P45748)	inhibitor, HPLC	–	pH 7.5, 23 °C, preincubation 1 min, added: ATP 1 mM and L-threonine	> 1000 µM
COC1=Cc2c(cc(O)c3cc(C)c(OC)cc23)C(C)(C)C1=O	TDO2	kynurenine production	HEK293 expressing human TDO2	–	24.7 µM
O=c1c(OCc2ccccc2)c(-c2cccc([N+](=O)[O-])c2)oc2ccccc12	β-glucosidase	enzyme activity, inhibitor	–	–	0.3 ± 0.11 µM
COc1ccc2cc(C(=O)NCCN3CCC(Cc4ccccc4)CC3)ccc2c1	Sodium-dependent serotonin transporter (SLC6A4, Homo sapiens, UniProt P31645)	transporter uptake	–	–	0.49 to 3.19 µM
CCNC(=S)NCC	Urea transporter 1 (Slc14a1, Rattus norvegicus, UniProt P97689)	urea transport, inhibitor	rat erythrocytes	15 min	17000 ± 2000 µM
Oc1c(C(Nc2nc3ccccc3s2)c2ccccc2OCc2ccccc2)ccc2cccnc12 (stereo not shown)	Genome polyprotein, NS2B-NS3 protease (GP1, West Nile virus, UniProt Q9Q6P4)	enzyme activity, inhibitor	–	0.1% CHAPS, added: tetrapeptide substrate	5.15 ± 0.09 µM
COc1cccc(-c2nc(Nc3nc4ccccc4o3)ncc2C#N)c1	Grm5	calcium signal, antagonist	–	–	0.266 µM
CCCCCCc1ccc(S(=O)(=O)N2CC2C(=O)N(CC)CC)cc1 (stereo not shown)	Protein disulfide-isomerase (P4HB, Homo sapiens, UniProt P07237)	enzyme activity, inhibitor, absorbance	–	pH 7.6	> 200 µM
O=C(Nc1ccc(C(=O)Nc2ccc(C(=O)Nc3ccc(S(=O)(=O)O)c4cc(S(=O)(=O)O)cc(S(=O)(=O)O)c34)cc2)cc1)Nc1ccc(C(=O)Nc2ccc(C(=O)Nc3ccc(S(=O)(=O)O)c4cc(S(=O)(=O)O)cc(S(=O)(=O)O)c34)cc2)cc1	Coagulation factor XIII A chain (F13A1, Homo sapiens, UniProt P00488)	enzyme activity, inhibitor, fluorescence	–	pH 7.4	~84 µM
CN(C)C(=O)c1ccc(CS(=O)(=O)CC(=O)C23CC4CC(CC(C4)C2)C3)o1	11-beta-hydroxysteroid dehydrogenase 1 (HSD11B1, Homo sapiens, UniProt P28845)	enzyme activity in cells, inhibitor	–	–	0.122 µM
NCc1ccc(NC(=O)c2ccc(C(F)(F)F)cc2O)cc1	Transmembrane protease serine 2 (TMPRSS2, Homo sapiens, UniProt O15393)	enzyme activity, inhibitor, fluorescence	–	with preincubation	30.2 µM
O=C(Cn1cc([N+](=O)[O-])cc(Br)c1=O)c1cc2cc(Cl)ccc2[nH]1	Replication protein A 70 kDa DNA-binding subunit (RPA1, Homo sapiens, UniProt P27694)	inhibitor, FRET	–	–	28.8 ± 4 µM
O=C(C[C@H](Cc1ccc(O)cc1)n1nncc1CNS(=O)(=O)c1ccc(-c2ccccc2)s1)NO	Endoplasmic reticulum aminopeptidase 2 (ERAP2, Homo sapiens, UniProt Q6P179)	enzyme activity, inhibitor, fluorescence	–	–	0.85 µM
CC(C)c1ccc(CN2CCN(CC(=O)c3ccc4[nH]c(=O)[nH]c4c3)CC2)cc1	Single-stranded DNA cytosine deaminase (AICDA, Homo sapiens, UniProt Q9GZX7)	deaminase activity, inhibitor, alkaline cleavage	293T lysate, untagged	pH 7.2, 37 °C	90 µM
O=C(CCCCCCNCc1ccc(-c2ccccc2)s1)NO	Histone deacetylase 3 (HDAC3, Homo sapiens, UniProt O15379)	enzyme activity, inhibitor, fluorescence	–	–	0.038 µM
CCCN(CC(=O)N(CCC)CC(=O)N(CCC)CC(=O)N(CCC)CC(=O)N(CCC)CC(=O)N(CC(N)=O)Cc1cn(CCCNC(=O)CCCOc2cccc(-c3nc4ccc(-c5nc6ccc(N7CCN(C)CC7)cc6[nH]5)cc4[nH]3)c2)nn1)C(=O)CNCc1cn(CCCNC(=O)CCCOc2cccc(-c3nc4ccc(-c5nc6ccc(N7CCN(C)CC7)cc6[nH]5)cc4[nH]3)c2)nn1	MBNL1–r(CUG)109 complex	MBNL1 displacement	–	added: bulk yeast tRNA competitor	22 ± 4 µM
CO[C@H]1O[C@H](CNC(=O)/C=C/c2ccc3c(c2)OCO3)[C@@H](O)[C@H](O)[C@@H]1O	Fucose-binding lectin PA-IIL (lecB, Pseudomonas aeruginosa, UniProt Q9HYN5)	ligand displacement, FP	–	–	29 µM
COC(=O)c1cc2c(Oc3ccc(NC(=S)NC4CC4)c(Cl)c3)ccnc2cc1OC	FGFR1	–	–	–	2.39 µM
Cc1cc(Cl)ccc1[C@H]1N[C@H](C(=O)O)Cc2c1[nH]c1ccccc21	MEP cytidylyltransferase IspD (Plasmodium falciparum, UniProt Q8I273)	enzyme activity, inhibitor, fluorimetric pyrophosphate	–	60 nM enzyme	0.26 ± 0.05 µM
COc1cc2nccc(Oc3ccc(NC(=S)NCCN(C)C)c(Cl)c3)c2cc1C(N)=O	FGFR1	–	–	–	6.76 µM
CC(C)c1ccc(C(=O)Nc2ccc(CN)cc2)c(O)c1	Transmembrane protease serine 11D (TMPRSS11D, Homo sapiens, UniProt O60235)	enzyme activity, inhibitor	–	15 min preincubation, added: Boc-VPR-AMC 100 µM	11.6 ± 0.6 µM
Cc1ccc(NC(=O)Nc2ccc(Cl)c(NCc3cccnc3)c2)cc1F	DDR1	enzyme activity, inhibitor, mobility shift	–	–	2.24 µM

A few entries again:
Structure (SMILES)	target	test	system	setting	IC50
C=CC(=O)N1CCc2ccc(-n3c(=O)ccc4cnc5ccc(-c6cnn(C)c6)cc5c43)cc21	Tyrosine-protein kinase SYK (SYK, Homo sapiens, UniProt P43405)	enzyme activity, inhibitor	–	–	> 10 µM
O=C(O)c1ccccc1NCc1ccccc1Cl	Transient receptor potential cation channel subfamily M member 4 (TRPM4, Homo sapiens, UniProt Q8TD43)	ion flux, inhibitor, fluorescence	–	–	8.3 µM
O=C(CCCCCCC(=O)NO)NO	HDAC (Lucilia cuprina egg nuclear extract)	enzyme activity, inhibitor, fluorometric	–	–	9.9 µM
CC(C)S(=O)(=O)c1cccc(O)c(=O)c1O	Protein P, RNase H domain (P, Hepatitis B virus genotype D subtype ayw, UniProt P03156)	RNase H activity, inhibitor	Hepatitis B virus	–	103 ± 13 µM
Cc1ccc(CNC(=O)[C@H](CC(C)C)NC(=O)[C@H](CCc2ccccc2)NC(=O)c2cnc(C)cn2)cc1	20S proteasome (Plasmodium falciparum, UniProt A0A5K1K7U1+Q8IJT1)	β5 activity, inhibitor	–	added: Suc-LLVY-AMC, PA28α-activated	0.105 µM
O=C(CSc1nc2sc3c(c2c(=O)n1-c1ccccc1)CCCCC3)NN=Cc1ccc(F)cc1	Dihydrofolate reductase (DHFR, Homo sapiens, UniProt P00374)	enzyme activity, inhibitor, ELISA	–	–	0.2 µM
c1ccc(-c2cc3ccccc3o/c2=N\c2ccc3c(c2)OCO3)cc1	Prostaglandin G/H synthase 2 (PTGS2, Homo sapiens, UniProt P35354)	enzyme activity, inhibitor	–	–	0.014 µM
COc1cc(N2CCN(C)CC2)ccc1Nc1ncc2c(n1)N(C)c1ccc(C)cc1C(=O)N2CC(F)(F)F	Leucine-rich repeat serine/threonine-protein kinase 2 (LRRK2, Homo sapiens, UniProt Q5S007)	enzyme activity, inhibitor	–	–	> 10 µM
